Measured values gathered from unrelated publications.
B1: RPRD1A 134-312 (Homo sapiens, UniProt Q96P16); chain KPRKRTYEQIKVDENENCSSLGSPSEPPQTLDLVRALQDLENAASGDAAVHQRIASLPVEVQEVSLLDKITDKESGERLSKMVEDACMLLADYNGRLAAEIDDRKQLTRMLADFLRCQKEALAEKEHKLEEYKRKLARVSLVRKELRSRIQSLPDLSRLPNVTGSHMHLPFAGDIYSED
B2: naaA apo 1-425 (Bradyrhizobium sp., UniProt D3WZ85); selenomethionine; chain MAGSNDVAKVMKTLDGMREGLIQTAVELGSIEAPTGREGAAGDYVYEWMARNGFGPERVGVFDDRFNVVGRLRGTGGGASLSFNSHLDTIMAREDTARFADANDRIYHEAWHEEGRIYGYSVVNCKGPMACWLIAAKALKEAGAALKGDVVLTAVCGEIDCEPVDEFQGHDYLAEDIGARYAISHGAISDYALVAEATNFKPAWVEAGKVFLKVTVFAGPSRYTPYVPRPVAALDSPNAIVRMAKLVEALEEWADNYEKRYTREYGGGTVVPKVAIGAIRGGVPYKIYRFPELCSIYMDIRLNPDTNPLVVQREVEAVVSKLGLKAEVKPFLFRRGYEAQGIEPLQNALEVAHREVVGRPTERPGSPECSMWRDTNPYNELGIPSLTYGCGGGAGGGNTYFLVDDMLKAAKVYAMTAMDLCNRTP
B3: ktrB 1-445 (Bacillus subtilis, UniProt O32081); chain MTLQKDKVIKWVRFTPPQVLAIGFFLTIIIGAVLLMLPISTTKPLSWIDALFTAASATTVTGLAVVDTGTQFTVFGQTVIMGLIQIGGLGFMTFAVLIVMILGKKIGLKERMLVQEALNQPTIGGVIGLVKVLFLFSISIELIAALILSIRLVPQYGWSSGLFASLFHAISAFNNAGFSLWPDNLMSYVGDPTVNLVITFLFITGGIGFTVLFDVMKNRRFKTFSLHTKLMLTGTLMLNAIAMLTVFILEYSNPGTLGHLHIVDKLWASYFQAVTPRTAGFNSLDFGSMREGTIVFTLLLMFIGAGSASTASGIKLTTFIVILTSVIAYLRGKKETVIFRRSIKYPIIIKALAVSVTSLFIVFLGIFALTITEQAPFLQIVFETFSAFGTVGLTMGLTPELTTAGKCIIIVIMFIGRIGPLTFVFSFAKTEQSNIRYPDGEVFTG
B4: Per2 1-506 (Mus musculus, UniProt O54943); sequence looked up; chain MNGYVDFSPSPTSPTKEPGAPQPTQAVLQEDVDMSSGSSGNENCSTGRDSQGSDCDDNGKELRMLVESSNTHPSPDDAFRLMMTEAEHNPSTSGCSSEQSAKADAHKELIRTLKELKVHLPADKKAKGKASTLATLKYALRSVKQVKANEEYYQLLMSSESQPCSVDVPSYSMEQVEGITSEYIVKNADMFAVAVSLVSGKILYISNQVASIFHCKKDAFSDAKFVEFLAPHDVSVFHSYTTPYKLPPWSVCSGLDSFTQECMEEKSFFCRVSVGKHHENEIRYQPFRMTPYLVKVQEQQGAESQLCCLLLAERVHSGYEAPRIPPEKRIFTTTHTPNCLFQAVDERAVPLLGYLPQDLIETPVLVQLHPSDRPLMLAIHKKILQAGGQPFDYSPIRFRTRNGEYITLDTSWSSFINPWSRKISFIIGRHKVRVGPLNEDVFAAPPCPEEKTPHPSVQELTEQIHRLLMQPVPHSGSSGYGSLGSNGSHEHLMSQTSSSDSNGQEE
B5: per 229-575 (Drosophila melanogaster, UniProt P07663); sequence looked up; chain GQRGERVKEDSFCCVISMHDGIVLYTTPSITDVLGYPRDMWLGRSFIDFVHLKDRATFASQITTGIPIAESRGSVPKDAKSTFCVMLRRYRGLKSGGFGVIGRPVSYEPFRLGLTFREAPEEARPDNYMVSNGTNMLLVICATPIKSSYKVPDEILSQKSPKFAIRHTATGIISHVDSAAVSALGYLPQDLIGRSIMDFYHHEDLSVMKETYETVMKKGQTAGASFCSKPYRFLIQNGCYVLLETEWTSFVNPWSRKLEFVVGHHRVFQGPKQCNVFEAAPTCKLKISEEAQSRNTRIKEDIVKRLAETVSRPSDTVKQEVSRRCQALASFMETLMDEVSRADLKLE
B6: clcA 1-465 C85A/K243C (Escherichia coli, UniProt P37019); chain MKTDTPSLETPQAARLRRRQLIRQLLERDKTPLAILFMAAVVGTLVGLAAVAFDKGVAWLQNQRMGALVHTADNYPLLLTVAFLASAVLAMFGYFLVRKYAPEAGGSGIPEIEGALEDQRPVRWWRVLPVKFFGGLGTLGGGMVLGREGPTVQIGGNIGRMVLDIFRLKGDEARHTLLATGAAAGLAAAFNAPLAGILFIIEEMRPQFRYTLISIKAVFIGVIMSTIMYRIFNHEVALIDVGCLSDAPLNTLWLYLILGIIFGIFGPIFNKWVLGMQDLLHRVHGGNITKWVLMGGAIGGLCGLLGFVAPATSGGGFNLIPIATAGNFSMGMLVFIFVARVITTLLCFSSGAPGGIFAPMLALGTVLGTAFGMVAVELFPQYHLEAGTFAIAGMGALLAASIRAPLTGIILVLEMTDNYQLILPMIITGLGATLLAQFTGGKPLYSAILARTLAKQEAEQLARSK
B7: SSO0001 Cas4 1-202 (Saccharolobus solfataricus, UniProt Q97TX9); selenomethionine; chain MITEFLLKKKLEEHLSHVKEENTIYVTDLVRCPRRVRYESEYKELAISQVYAPSAILGDILHLGLESVLKGNFNAETEVETLREINVGGKVYKIKGRADAIIRNDNGKSIVIEIKTSRSDKGLPLIHHKMQLQIYLWLFSAEKGILVYITPDRIAEYEINEPLDEATIVRLAEDTIMLQNSPRFNWECKYCIFSVICPAKLT
B8: lapB 21-389 (Escherichia coli, UniProt P0AB58); sequence looked up; chain RRSAQQNKQDEANRLSRDYVAGVNFLLSNQQDKAVDLFLDMLKEDTGTVEAHLTLGNLFRSRGEVDRAIRIHQTLMESASLTYEQRLLAIQQLGRDYMAAGLYDRAEDMFNQLTDETDFRIGALQQLLQIYQATSEWQKAIDVAERLVKLGKDKQRVEIAHFYCELALQHMASDDLDRAMTLLKKGAAADKNSARVSIMMGRVFMAKGEYAKAVESLQRVISQDRELVSETLEMLQTCYQQLGKTAEWAEFLQRAVEENTGADAELMLADIIEARDGSEAAQVYITRQLQRHPTMRVFHKLMDYHLNEAEEGRAKESLMVLRDMVGEKVRSKPRYRCQKCGFTAYTLYWHCPSCRAWSTIKPIRGLDGL
B9: SPA2 389-535 (Saccharomyces cerevisiae, UniProt P23201); Alexa 488 label; sequence looked up; chain LKITDGFISKYSSADGLIPAQYILNANNLIIQFTTRLSAVPIGDSTAISHQIGEELFQILSQLSNLISQLLLSADLLQYKDQVILLKASLSHAITSIRYFSVYGPVLIPKITVQAAVSEVCFAMCNLIDSAKIKSDSNGESTTSNEG
B10: RNASE1 mature P114G/H119A (Bos taurus, UniProt P61823); sequence looked up; chain KETAAAKFERQHMDSSTSAASSSNYCNQMMKSRNLTKDRCKPVNTFVHESLADVQAVCSQKNVACKNGQTNCYQSYSTMSITDCRETGSSKYPNCAYKTTQANKHIIVACEGNGYVPVAFDASV
B11: human VDAC2; sequence looked up; chain ATHGQTCARPMCIPPSYADLGKAARDIFNKGFGFGLVKLDVKTKSCSGVEFSTSGSSNTDTGKVTGTLETKYKWCEYGLTFTEKWNTDNTLGTEIAIEDQICQGLKLTFDTTFSPNTGKKSGKIKSSYKRECINLGCDVDFDFAGPAIHGSAVFGYEGWLAGYQMTFDSAKSKLTRNNFAVGYRTGDFQLHTNVNDGTEFGGSIYQKVCEDLDTSVNLAWTSGTNCTRFGIAAKYQLDPTASISAKVNNSSLIGVGYTQTLRPGVKLTLSALVDGKSINAGGHKVGLALELEA
B12: clcA 1-465 C85A/H234C/I197A (Escherichia coli, UniProt P37019); chain MKTDTPSLETPQAARLRRRQLIRQLLERDKTPLAILFMAAVVGTLVGLAAVAFDKGVAWLQNQRMGALVHTADNYPLLLTVAFLASAVLAMFGYFLVRKYAPEAGGSGIPEIEGALEDQRPVRWWRVLPVKFFGGLGTLGGGMVLGREGPTVQIGGNIGRMVLDIFRLKGDEARHTLLATGAAAGLAAAFNAPLAGALFIIEEMRPQFRYTLISIKAVFIGVIMSTIMYRIFNCEVALIDVGKLSDAPLNTLWLYLILGIIFGIFGPIFNKWVLGMQDLLHRVHGGNITKWVLMGGAIGGLCGLLGFVAPATSGGGFNLIPIATAGNFSMGMLVFIFVARVITTLLCFSSGAPGGIFAPMLALGTVLGTAFGMVAVELFPQYHLEAGTFAIAGMGALLAASIRAPLTGIILVLEMTDNYQLILPMIITGLGATLLAQFTGGKPLYSAILARTLAKQEAEQLARSK
B13: Bri2 BRICHOS 113-231 (Homo sapiens, UniProt Q9Y287); sequence looked up; chain QTIEENIKIFEEEEVEFISVPVPEFADSDPANIVHDFNKKLTAYLDLNLDKCYVIPLNTSIVMPPRNLLELLINIKAGTYLPQSYLIHEHMVITDRIENIDHLGFFIYRLCHDKETYKL
B14: GGPS1 (Homo sapiens, UniProt O95749); sequence looked up; chain MEKTQETVQRILLEPYKYLLQLPGKQVRTKLSQAFNHWLKVPEDKLQIIIEVTEMLHNASLLIDDIEDNSKLRRGFPVAHSIYGIPSVINSANYVYFLGLEKVLTLDHPDAVKLFTRQLLELHQGQGLDIYWRDNYTCPTEEEYKAMVLQKTGGLFGLAVGLMQLFSDYKEDLKPLLNTLGLFFQIRDDYANLHSKEYSENKSFCEDLTEGKFSFPTIHAIWSRPESTQVQNILRQRTENIDIKKYCVHYLEDVGSFEYTRNTLKELEAKAYKQIDARGGNPELVALVKHLSKMFKEENE
B15: aqpZ 1-231 F13A (Escherichia coli, UniProt P60844); chain MFRKLAAECFGTAWLVFGGCGSAVLAAGFPELGIGFAGVALAFGLTVLTMAFAVGHISGGHFNPAVTIGLWAGGRFPAKEVVGYVIAQVVGGIVAAALLYLIASGKTGFDAAASGFASNGYGEHSPGGYSMLSALVVELVLSAGFLLVIHGATDKFAPAGFAPIAIGLALTLIHLISIPVTNTSVNPARSTAVAIFQGGWALEQLWFFWVVPIVGGIIGGLIYRTLLEKRD
Sequence of UniProt Q00535 (whole entry, looked up): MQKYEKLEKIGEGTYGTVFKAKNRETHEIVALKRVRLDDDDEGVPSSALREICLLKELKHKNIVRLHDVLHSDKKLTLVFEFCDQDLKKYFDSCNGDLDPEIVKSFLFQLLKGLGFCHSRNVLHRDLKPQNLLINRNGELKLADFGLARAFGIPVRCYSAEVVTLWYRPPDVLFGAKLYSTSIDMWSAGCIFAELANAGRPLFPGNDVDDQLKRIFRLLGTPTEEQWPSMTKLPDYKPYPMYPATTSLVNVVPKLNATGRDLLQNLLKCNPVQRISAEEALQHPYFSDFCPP
Sequence of UniProt P26368 (whole entry, looked up): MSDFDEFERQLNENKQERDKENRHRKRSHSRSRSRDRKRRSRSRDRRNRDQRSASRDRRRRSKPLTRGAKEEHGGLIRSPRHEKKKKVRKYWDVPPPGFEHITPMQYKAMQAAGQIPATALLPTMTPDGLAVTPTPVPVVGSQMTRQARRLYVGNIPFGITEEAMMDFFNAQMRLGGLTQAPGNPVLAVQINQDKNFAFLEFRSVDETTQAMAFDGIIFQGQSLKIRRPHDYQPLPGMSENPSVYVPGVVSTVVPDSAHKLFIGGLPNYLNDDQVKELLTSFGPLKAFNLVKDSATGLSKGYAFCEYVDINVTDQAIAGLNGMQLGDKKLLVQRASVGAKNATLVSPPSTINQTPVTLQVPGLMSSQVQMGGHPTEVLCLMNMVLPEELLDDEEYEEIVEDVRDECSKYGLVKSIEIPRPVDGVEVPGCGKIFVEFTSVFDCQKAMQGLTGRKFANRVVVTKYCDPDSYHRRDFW
Sequence of UniProt P22770 (whole entry, looked up): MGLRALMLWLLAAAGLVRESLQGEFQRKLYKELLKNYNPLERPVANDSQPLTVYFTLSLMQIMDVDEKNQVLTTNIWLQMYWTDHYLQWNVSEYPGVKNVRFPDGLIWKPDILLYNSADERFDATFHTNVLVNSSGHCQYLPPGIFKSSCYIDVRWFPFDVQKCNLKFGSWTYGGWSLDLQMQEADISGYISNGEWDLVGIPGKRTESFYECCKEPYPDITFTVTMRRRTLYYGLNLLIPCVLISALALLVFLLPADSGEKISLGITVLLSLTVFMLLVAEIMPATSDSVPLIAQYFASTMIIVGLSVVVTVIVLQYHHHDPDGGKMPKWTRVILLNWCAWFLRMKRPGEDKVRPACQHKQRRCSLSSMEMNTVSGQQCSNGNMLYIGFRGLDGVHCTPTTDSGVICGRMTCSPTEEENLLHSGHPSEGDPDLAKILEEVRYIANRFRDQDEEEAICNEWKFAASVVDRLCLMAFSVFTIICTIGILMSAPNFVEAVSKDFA

`CRYBB2 (Homo sapiens, UniProt P43320)` — result for “subunits per oligomer”: 2 (itself; native MS; abundances relative to monomer).
`B1 (RPRD1A 134-312)`: “subunits per oligomer” 2 (itself; AUC; 4 °C).
`B2 (naaA apo 1-425)` — result for “subunits per oligomer”: 8 (itself; crystal structure).
`B3 (ktrB 1-445)` — result for “subunits per oligomer”: 2 (itself; crystal structure).
The activity change of `KEAFFDRCLSVINLMSSKMLQINA` is reported as 16% (Cyclin-dependent kinase 5, with p25 (CDK5, Homo sapiens, UniProt Q00535); phosphotransferase activity, radiometric; peptide; concentration not given, 10% DMSO, together with: histone substrate; baseline: p5-WT peptide).
`B4 (Per2 1-506)` — result for “subunits per oligomer”: 2 (itself; SEC).
Under “subunits per oligomer”, `B5 (per 229-575)` is recorded as 2 (itself; SEC).
`B6 (clcA 1-465 C85A/K243C)`: “subunits per oligomer” 2 (itself; SEC).
Under “subunits per oligomer”, `B7 (SSO0001 Cas4 1-202)` is recorded as 10 protomers (itself; X-ray crystallography).
`B8 (lapB 21-389)`: “subunits per oligomer” 2 (itself; cryo-EM).
For `B9 (SPA2 389-535)`, “subunits per oligomer” read 4 (itself; SEC; broad peak).
`B10 (RNASE1 mature P114G/H119A)` — result for “subunits per oligomer”: 2 (itself; SEC).
For `B11 (human VDAC2)`, “log2 fold change” read 0.34 (PP6C (human); co-immunoprecipitation, IP-MS; CYB5R4 knockout cells; concentration not given; baseline: CYB5R4 knockout over parental).
`MKGMSKMPQFNLRWPREVLDLVRKVAEENGRSVNSEIYQRVMESFKKEGRIGA (Arc repressor 1-53 (P22 phage, UniProt P03050))`: “subunits per oligomer” 2 (itself; SEC).
`CHRNA7 (Gallus gallus, UniProt P22770)`: “subunits per oligomer” 5 (itself; sucrose gradient sedimentation).
`GGUUUUUAA (ssRNA)` gave a Kd of 5.59 µM (U2AF2 148-342 (Homo sapiens, UniProt P26368); sequencing of bound RNA; RNA; motif only).
`B12 (clcA 1-465 C85A/H234C/I197A)`: “subunits per oligomer” 2 (itself; SEC).
`B13 (Bri2 BRICHOS 113-231)`: “subunits per oligomer” 2 (itself; SAXS).
For `B14 (GGPS1)`, “subunits per oligomer” read 6 (itself; SEC-MALS).
Under “log2 fold change”, `human Hsp90-beta` is recorded as 0.0263 (CYB5R4 knockout human cells; PP4 interaction, 3xFLAG-PP4C IP-MS; concentration not given; baseline: CYB5R4 KO over parental).
`B15 (aqpZ 1-231 F13A)`: “subunits per oligomer” 4 (itself; native MS).

Repeated from above:
`B6 (clcA 1-465 C85A/K243C)`: “subunits per oligomer” 2 (itself; SEC).
